Published values of several laboratories.
Each line is one published result; not all experiments were run side by side. “And” joins repeats or separate records; there may be more than shown. ± marks the error that the study gave. Values after ≈ are worked out from the molar mass of the structure shown.

CC(C)[C@H]1NC(=O)[C@H](Cc2ccccc2)NC(=O)[C@@H](C(C)C)NC(=O)[C@@H](C)NC(=O)[C@H](CO)NC(=O)[C@@H](Cc2c(-c3ccc(-c4ccccc4)c(F)c3)[nH]c3ccccc23)NC(=O)[C@@H](CO)NC1=O has an MIC90 of 42.2 µM (≈ 40 µg/mL) (Mycobacterium marinum).
O=C(Oc1cc(OC(=O)c2cc(O)c(O)c(O)c2)c2ccccc2c1)c1cc(O)c(O)c(O)c1 gave an IC50 of 1970 ± 20 nM (Herpes simplex virus 2; viral replication, RT-qPCR; Vero, acyclovir-resistant).
For C[N+]1=C2C(c3ccc([N+](=O)[O-])cc3)=[N+]([O-])c3ccccc3N2CCC1, the MIC50 was 0.25 µg/mL (Clostridioides difficile; microbial growth).
Under “organ-to-body weight ratio”, O=C1NC2(CC2)COc2ncc(F)cc2[C@H]2COCCN2c2ccn3ncc1c3n2 is recorded as 0.208 ± 0.082% (Sprague-Dawley rat, female, uterus; oral, 2.5 mg/kg/day, 4 weeks dosing, end of recovery).
For C[N+]1=C2C(c3ccccc3)=[N+]([O-])c3ccccc3N2CCC1, the MIC50 was 16 µg/mL (Clostridioides difficile; microbial growth).
CC[C@H](C)[C@@H]1NC(=O)[C@H](CO)NC(=O)[C@H](CCCCN)NC(=O)[C@@H]2CSSC[C@@H](C(=O)N[C@@H](Cc3ccc(O)cc3)C(N)=O)NC(=O)[C@H](CCCCN)NC(=O)[C@@H]3CSSC[C@H](NC(=O)[C@H](CCCNC(=N)N)NC(=O)[C@H](CC(C)C)NC(=O)[C@H](CC(=O)O)NC(=O)[C@H](CC(=O)O)NC(=O)[C@H](CCC(=O)O)NC(=O)[C@H](CC(N)=O)NC(=O)[C@H](Cc4c[nH]c5ccccc45)NC(=O)C(C)(CC)NC(=O)CNC(=O)[C@H](CC(N)=O)NC(=O)[C@@H](NC(=O)CNC(=O)[C@H](Cc4ccccc4)NC(=O)CN)CSSC[C@H](NC(=O)[C@H](Cc4ccc(O)cc4)NC(=O)CNC(=O)CNC(=O)[C@H](CCCCN)NC(=O)[C@H](Cc4ccc(O)cc4)NC(=O)[C@H]4CCCN4C(=O)[C@@H]4CCCN4C1=O)C(=O)N[C@@H](C)C(=O)N[C@@H](CCCCN)C(=O)N1CCC[C@@H]1C(=O)NCC(=O)N[C@@H](Cc1ccccc1)C(=O)N[C@@H](C(C)C)C(=O)N3)C(=O)N[C@@H](Cc1c[nH]cn1)C(=O)N[C@@H](CC(N)=O)C(=O)N[C@@H](Cc1c[nH]cn1)C(=O)N2 (some centres unmarked) has an MBC of 2 µM (≈ 8.92 µg/mL) (Streptococcus pneumoniae; D39; 24 h, 37 °C, 99.9% killing).
For CCCC(C)Oc1cccc(NC(=O)c2cccnc2)c1 (centres unmarked), the MIC50 was 8 µg/mL (≈ 28.1 µM) (Saccharomyces cerevisiae; Δpdr5).
The mortality of CN(C)c1nc(NCc2ccccc2F)c(/N=N/c2ccc(Cl)cc2)c(N(C)C)n1 is reported as 93.3 ± 11.6% (Ostrinia furnacalis; leaf dipping; 200 mg/L, 96 h).
O=S(=O)(c1ccc(-c2ccc3ncnc(Nc4ccc(OCc5ccccc5F)c(Cl)c4)c3c2)cc1)N1CCOCC1 gave an inhibition of 10% (Trypanosoma cruzi; intracellular amastigote growth, β-galactosidase CPRG; 3T3, Tulahuen, β-galactosidase-expressing; 10 µM, 96 h).
Under “faecal Nluc luminescence”, CN(C(=O)c1ccn2ncc(-c3ccc(C(N)=O)cc3)c2c1)c1ccc(C#N)cn1 is recorded as 62 a.u. and 35 a.u. and 15 a.u. and 21 a.u. and 11 a.u. (Cryptosporidium parvum; UGA1 Nluc, IFN-gamma knockout C57BL/6 mice, faeces; oral, 10 mg/kg daily, 168 h post infection, treatment days 3-9; higher means more parasites).
Cc1cc(C(=O)Nc2nc3cccc(C)c3n2[C@H]2CCCCN(C(=O)/C=C/CN(C)C)C2)ccn1 — result for “EC50 fold shift”: 0.66 fold and 0.58 fold (Trypanosoma brucei; cell growth, Alamar Blue; 2T1 overexpressing Tb927.11.2040; reference: parental 2T1).
With CCCC(=O)OCCSCCC(=O)N[C@H](CCN)C(=O)N[C@@H](CCN)C(=O)N[C@@H](CCN)C(=O)N[C@@H](CC(C)C)C(=O)N[C@H](Cc1ccccc1)C(=O)N[C@@H](CCN)C(=O)N[C@@H](CCN)C(=O)N[C@@H](CC(C)C)C(N)=O the MBC was greater than 128 µM (Acinetobacter calcoaceticus; BHI agar spot plating; 24 h, 37 °C).
For CC[C@H](C)CCCCC(=O)N[C@@H](CCN)C(=O)N[C@H](C(=O)N[C@@H](CCN)C(=O)N[C@H]1CCNC(=O)[C@H]([C@@H](C)O)NC(=O)[C@H](CCN)NC(=O)[C@H](CCN)NC(=O)[C@H](CC(C)C)NC(=O)[C@@H](CC(C)C)NC(=O)[C@H](CCN)NC1=O)[C@@H](C)O, “MIC fold change” read 2.21 (Escherichia coli; daily serial passaging; ATCC 8739; highest sub-MIC, 43 days; reference: initial MIC).
CCOC(=O)C1(Cc2c(F)cccc2F)Oc2cc(F)ccc2N(Cc2c(F)cccc2F)C1=O (centres unmarked) has an inhibition of 43.7 ± 2.01% (Setaria viridis; fresh weight, greenhouse postemergence; postemergence, 150 g ai/ha, 21 days).
The IC90 of CCCCC(CC)COC(=O)CC(C(=O)OCC(CC)CCCC)S(=O)(=O)O.CCCSc1ccc2[nH]c(NC(=O)OC)nc2c1 (centres unmarked) is reported as 625 nM (Cryptococcus neoformans; EUCAST broth microdilution; clinical isolate; 72 h, 37 °C, RPMI with 2% glucose).
CN(C)c1nc(NCc2cccc(-c3ccccc3)c2)c(/N=N/c2ccc(Cl)cc2)c(N(C)C)n1 gave a mortality of 96.7 ± 5.77% (Ostrinia furnacalis; leaf dipping; 500 mg/L, 96 h).
For CC(C)[C@H]1NC(=O)[C@H](Cc2ccccc2)NC(=O)[C@@H](C(C)C)NC(=O)[C@@H](C)NC(=O)[C@H](CO)NC(=O)[C@@H](Cc2c(-c3ccc(-c4ccc5ccccc5c4)cc3)[nH]c3ccccc23)NC(=O)CNC1=O, the MIC90 was greater than 100 µM (Mycobacterium marinum).
CC(C)(C)OC(=O)N1CCN(c2ccc(-c3ccc4ncnc(Nc5ccc(OCc6cccc(F)c6)c(Cl)c5)c4c3)cc2)CC1 gave an inhibition of 8% (Trypanosoma cruzi; intracellular amastigote growth; NIH 3T3, Tulahuen, β-galactosidase-expressing; 10 µM, 96 h).
NCCCO.O=C(O)C(Cl)Cl has an inhibition of 78% (Chenopodium album; herbicidal activity; 15 mg/mL, 21 days, post-emergence greenhouse).
CCCCCCCCCCCC(=O)C(C)C(=O)N1CCC[C@H]1C(=O)NC(C)(C)C(=O)NC(C)(C)C(=O)NC(C)(C)C(=O)N[C@](C)(CC)C(=O)NCCC(=O)N[C@@H](C)C(=O)N[C@](C)(CC)C(=O)N[C@@H](C)C(=O)N[C@@H](CC(C)C)C(=O)N[C@](C)(CC)C(=O)NCCC(=O)N[C@@H](C)C(=O)N[C@](C)(CC)C(=O)NCCC(=O)N[C@@H](C)C(=O)NC(C)(C)C(=O)NC(C)(C)C(=O)NC(C)(C)C(=O)N[C@@H](C)C(=O)N[C@@H](CC(=O)O)C(=O)O (some centres unmarked) — result for “chitin level (calcofluor fluorescence)”: 0.044 a.u. (Candidozyma auris; calcofluor white microscopy; CBS 10913; half MIC, 4 h, 30 °C, YPD medium; reference: DMSO vehicle, higher = more chitin).
With COc1ccccc1-c1n[nH]c2nc(NC3CCN(C(=O)Cc4ccc(F)cc4F)CC3)ncc12 the relative abundance was 0.94 (bead binding, competition bead pull-down, refers to: LINJ.36.6110; Leishmania donovani axenic amastigote extract; 10 µM; reference: vehicle).
c1ccc(CCNC2CCCc3c2[nH]c2ccc(C4CCCCC4)cc32)cc1 (centres unmarked) — result for “MIC fold change”: 4 (Streptococcus pneumoniae; concentration not given, 10% fetal bovine serum; reference: without serum).
CCc1nn(C)c2nc(-c3ccc(C(=O)O)cc3)nc(NCc3ccccc3)c12 gave a parasite number of 70.4% and 62.1% and 88.8% and 77.4% (Cryptosporidium parvum; HCT-8; 6 x EC90, 6 h; reference: DMSO control).

Excerpt of the above:
O=S(=O)(c1ccc(-c2ccc3ncnc(Nc4ccc(OCc5ccccc5F)c(Cl)c4)c3c2)cc1)N1CCOCC1 gave an inhibition of 10% (Trypanosoma cruzi; intracellular amastigote growth, β-galactosidase CPRG; 3T3, Tulahuen, β-galactosidase-expressing; 10 µM, 96 h).
